Literature values as cited in several papers.
Values joined by “and” are separate records of one study, mostly repeats; a detail may differ. ± marks the error that the study gave. In brackets after ≈: the same amount, converted by molar mass.

The free Cmax of `COc1c(N2C[C@@H]3CCCN[C@@H]3C2)c(F)cc2c(=O)c(C(=O)O)cn(C3CC3)c12` is reported as 3770 nM (human).
With `C[Si]1(C)O[Si](C)(C)O[Si](C)(C)O[Si](C)(C)O[Si](C)(C)O1` the log KOW was 8.03 (slow-stirring method; 1-octanol/water; 25 °C).
For `O=C1Nc2ccc(Cl)cc2[C@@](C#CC2CC2)(C(F)(F)F)O1`, the solubility was 182 µg/mL (≈ 577 µM) (FaSSIF; literature value).
For `CC#CC(=O)N1CC[C@@H](n2c(=O)n(-c3ccc(Oc4ccccc4)cc3)c3c(N)ncnc32)C1`, the AUC(0-last) was 8500 ± 1700 ng·h/mL (human; 480 mg once daily).
For `Cc1nc(NC(=O)N2CCC[C@H]2C(N)=O)sc1-c1ccnc(C(C)(C)C(F)(F)F)c1`, “unchanged drug recovered” read 36% (human, feces; oral, 400 mg, time not given, radiolabelled, fasted; reference: dose).
`CO[C@H]1/C=C/O[C@@]2(C)Oc3c(C)c(O)c4c(O)c(c(/C=N/N5CCN(C)CC5)c(O)c4c3C2=O)NC(=O)/C(C)=C\C=C\[C@H](C)[C@H](O)[C@@H](C)[C@@H](O)[C@@H](C)[C@H](OC(C)=O)[C@@H]1C` gave a Cmax of 13100 nM (plasma; concentration not given, total, steady state).
With `C=C[C@]1(C)C[C@@H](OC(=O)CSc2ccccc2N)[C@]2(C)[C@H](C)CC[C@]3(CCC(=O)[C@H]32)[C@@H](C)[C@@H]1O` the elimination half-life was 5.5 h (healthy adult chickens; intramuscular).
With `Cc1ccc(Nc2c(F)cccc2Cl)c(CC(=O)O)c1` the solubility was less than 1000 µg/mL (water).
`O=C1NC(=O)/C(=C/c2ccc3ncnc(N4CCCCC4)c3n2)S1` has a half-life of 1.2 h (mouse; intravenous).
The free Cmax of `CCC(=O)NC[C@@H]1C[C@H]1c1cccc2c1CCO2` is reported as 23.5 nM (plasma).
With `CCN1CCN(Cc2ccc(Nc3ncc(F)c(-c4cc(F)c5nc(C)n(C(C)C)c5c4)n3)nc2)CC1` the AUC(0-last) was 2190 ng·h/mL (human; 100 mg twice daily, tablet, multiple dose).
The free Cmax of `O=C1NCCN1CCN1CCC(c2cn(-c3ccc(F)cc3)c3ccc(Cl)cc23)CC1` is reported as 0.787 nM (plasma).
`Cc1cn([C@H]2C[C@H](N=[N+]=[N-])[C@@H](CO)O2)c(=O)[nH]c1=O` gave an oral bioavailability of 86% (mouse).
With `Cc1nn(C)cc1S(=O)(=O)NC(=O)c1ccc(-n2ccc(OCC(C)(C)C(F)(F)F)n2)nc1N1C[C@@H](C)CC1(C)C` the logP octanol/water was 6.
For `Cc1nc2n(c(=O)c1CCN1CCC(c3noc4cc(F)ccc34)CC1)CCCC2`, the free Cmax was 2.68 nM (human).
With `CN1CCC[C@@H]1CCO[C@](C)(c1ccccc1)c1ccc(Cl)cc1` the crossover pressure was 140 to 160 bar (supercritical CO2).
`O=C1NC(=O)C(c2ccccc2)(c2ccccc2)N1` gave a free Cmax of 4360 nM (human).
With `Nc1nc(=O)n(C2CSC(CO)O2)cc1F` (stereo not drawn) the bioavailability was 73% (monkey; 33.3 mg/kg).
`Cc1nsc(-c2nnc3n2CCN(C(=O)c2ccc(F)cc2)[C@@H]3C)n1` has an effective half-life of 9.6 h (women; oral).
For `C#C[C@]1(O)CC[C@H]2[C@@H]3CCc4cc(O)ccc4[C@H]3CC[C@@]21C`, the Cmax, mean was 0.0962 ng/mL (human, fed; 0.025, single dose).
`Nc1cccc2c1CN(C1CCC(=O)NC1=O)C2=O` (stereo not drawn) gave a solubility of less than 1000 µg/mL (water).
For `OC(Cn1cncn1)(Cn1cncn1)c1ccc(F)cc1F`, the Vd was 0.73 L/kg (human).
Under “adverse event incidence”, `CN(C)C(=O)c1cc2cnc(Nc3ccc(N4CCNCC4)cn3)nc2n1C1CCCC1` is recorded as 37.3% (item: diarrhea; advanced solid tumour or lymphoma patients; dose not given, 3 weeks on 1 week off, any grade; reference: patients).
For `CCN(CC)CCNC(=O)c1c(C)[nH]c(/C=C2\C(=O)Nc3ccc(F)cc32)c1C`, the Cmax was 210 nM (plasma; concentration not given, total, steady state).
The log KOA of `C[C@]12CCC(=O)C=C1CC[C@@H]1[C@@H]2[C@@H](O)C[C@@]2(C)[C@H]1CC[C@]2(O)C(=O)CO` is reported as greater than 5.
Under “increased ALT/AST incidence”, `C[C@@H](Oc1cc(-c2cnn(C3CCNCC3)c2)cnc1N)c1c(Cl)ccc(F)c1Cl` is recorded as 36% (treatment-naive ALK-positive NSCLC patients; dose not given, monotherapy, trial).
`C[Si](C)(C)O[Si](C)(C)C` gave a log KAW of 1.98 (25 °C).
With `Cc1cn([C@H]2C=C[C@@H](CO)O2)c(=O)[nH]c1=O` the oral bioavailability was 98% (mouse).
`Cc1nc2c([nH]1)-c1ccccc1N(C(=O)c1ccc(NC(=O)c3ccccc3-c3ccccc3)cc1)CC2.Cl` has a solubility of less than 1000 µg/mL (water).
With `CNCc1cc(-c2ccccc2F)n(S(=O)(=O)c2cccnc2)c1` the AUC(0-inf) was 186 ng·h/mL (human; 20 mg, multiple dose).
`c1ccc2ccccc2c1` — result for “amount in tissue”: 0.323 ng/well and 0.286 ng/well and 0.331 ng/well (zebrafish embryos, whole embryo; 320.4 ng/well, 48 hpf, single exposure).
`Nc1cccc2c1C(=O)N(C1CCC(=O)NC1=O)C2=O` (stereo not drawn): “febrile neutropenia incidence” 2% (relapsed refractory multiple myeloma patients; dose not given, grade 3-4).
For `COc1cc2c(Oc3ccc4[nH]c(C)cc4c3F)ccnc2cc1OCC1(N)CC1`, the AUC(0-120 h) was 894 ± 305 ng·h/mL (adult human; 16 mg single dose).
`COc1cc(N2CCC3(CCN(C)CC3)CC2)ccc1Nc1ncc(Cl)c(Nc2ccccc2P(C)(C)=O)n1` gave an elimination half-life of 28.6 h (healthy human subjects).
`COc1ccccc1[C@H](Cn1c(=O)n(C(C)(C)C(=O)O)c(=O)c2c(C)c(-c3ncco3)sc21)OC1CCOCC1` — result for “AUC at ED50”: 19 ng·h/mL (rat; 0.18 mg/kg, hepatic fatty acid synthesis model).
For `N#Cc1ccc(C[C@H](NC(=O)Nc2ccc(F)cc2)C(=O)N2CCc3ccccc32)cc1`, the remaining compound was 22% (rat liver microsomes; 30 min).
For `O=C(O)[C@H]1/C(=C/CO)O[C@@H]2CC(=O)N21`, aqueous stability read “unstable” (acidic conditions).
The free Cmax of `O=C(CCCN1CCC(O)(c2ccc(Cl)cc2)CC1)c1ccc(F)cc1` is reported as 4.26 nM (human).
The local NOAEL of `N=C(N)NCCC[C@H](NC(=O)[C@H](CCCNC(=N)N)NC(=O)[C@H](CCCCN)NC(=O)[C@H](CCC(N)=O)NC(=O)[C@H](CCCCN)NC(=O)[C@H](Cc1ccc(O)cc1)NC(=O)[C@@H](N)CCCCN)C(=O)N[C@@H](CO)C(=O)N[C@@H](Cc1ccc(O)cc1)C(=O)N[C@@H](CCCCN)C(=O)O` is reported as 0.08 mg/kg (beagle dog IPC model).
`Cn1c(Cn2ccc(C(F)(F)F)c(Oc3cc(Cl)cc(C#N)c3)c2=O)n[nH]c1=O` gave a Nausea incidence of 10.7% (human subjects; dose not given, up to 48 weeks).
Under “unchanged compound excreted”, `COc1cc(N2CCC(N3CCN(C)CC3)CC2)ccc1Nc1ncc(Cl)c(Nc2ccccc2P(C)(C)=O)n1` is recorded as 41% (human, feces; oral, 180 mg; reference: radioactivity).
The effective half-life of `Cc1cc(C[C@@H](NC(=O)N2CCC(c3cc4ccccc4[nH]c3=O)CC2)C(=O)N2CCN(C3CCN(C)CC3)CC2)cc2cn[nH]c12` is reported as 6.55 h (intranasal, 10 mg).
`Nc1nc(NC2CC2)c2ncn([C@H]3C=C[C@@H](CO)C3)c2n1` has an oral bioavailability of 83% (human).
The half-life of `CC(=O)N[C@@H]1CCC[C@H](C(=O)Nc2cc(-c3cnn4c3CC(C)(C)C4)c(Cl)cn2)C1` is reported as 0.18 h (mouse).
For `CN(C)CCc1c[nH]c2ccc(C[C@H]3COC(=O)N3)cc12`, the solubility was less than 1000 µg/mL (water).
`CCc1cc(/C(C)=N/OCc2ccc(C3CCCCC3)c(C(F)(F)F)c2)ccc1CN1CC(C(=O)O)C1` gave a clearance of 2.03 L/h (population PK; human, CYP2C9*1/*3).
`CCOc1nc2cccc(C(=O)O)c2n1Cc1ccc(-c2ccccc2-c2nnn[nH]2)cc1` has a solubility of less than 1000 µg/mL (water).
`COCCc1ccc(OCC(O)CNC(C)C)cc1` (stereo not drawn) — result for “AUC(0-inf), geometric mean”: 486 ng·h/mL (human; 100 mg).
The solubility of `CCC1(c2ccccc2)C(=O)NCNC1=O` is reported as less than 1000 µg/mL (water).
`C=CC(=O)N1CCC([C@@H]2CCNc3c(C(N)=O)c(-c4ccc(Oc5ccccc5)cc4)nn32)CC1` gave a Cmax of 179 ± 80 ng/mL (human patients; oral, 80 mg once daily, day 8).
For `COc1c2occc2cc2ccc(=O)oc12`, the diarrhoea incidence was 0% (human; concentration not given, clinical).
For `CC(=O)N1CCN(c2ccc(OCC3COC(Cn4ccnc4)(c4ccc(Cl)cc4Cl)O3)cc2)CC1` (stereo not drawn), the crossover pressure was 130 to 150 bar (supercritical CO2).
`Cc1cc(-c2nccc3c2ccn3CC(=O)Nc2ccc(-c3cnccn3)cn2)ccn1`: “total plasma concentration” 6390 nmol/L (dog; 30 mg/kg/day, day 28).
For `CN(CCOc1ccc(CC2SC(=O)NC2=O)cc1)c1ccccn1` (stereo not drawn), the Cmax was 1700 nM (plasma; concentration not given, total, steady state).
`Nc1ncnc2c1ncn2[C@@H]1O[C@H](CO)C[C@@H]1F` gave an oral bioavailability of 65 to 75% (human; 4.5 mg/kg).
The solubility of `C[C@@H](Oc1ccc(S(C)(=O)=O)cc1C(=O)N1C[C@@H]2C[C@]2(c2cc(C(F)(F)F)on2)C1)C(F)(F)F` is reported as 18.5 µg/mL (≈ 36.1 µM) (FaSSIF).
`COC(=O)N[C@@H](C)CNc1nccc(-c2cn(C(C)C)nc2-c2cc(Cl)cc(NS(C)(=O)=O)c2F)n1`: “unchanged drug excreted” 2% (human, urine; dose not given).
`Cc1nc(Nc2ncc(C(=O)Nc3c(C)cccc3Cl)s2)cc(N2CCN(CCO)CC2)n1` has a crossover pressure of 160 to 180 bar (supercritical CO2).
`O=C1NC(=O)C(c2ccccc2)(c2ccccc2)N1` gave a solubility of 39.6 µg/mL (≈ 157 µM) (FaSSIF; literature value).
`Cc1nc(Nc2ncc(C(=O)Nc3c(C)cccc3Cl)s2)cc(N2CCN(CCO)CC2)n1` has an aqueous solubility of less than 1 µg/mL (pH 6.99).
